Measurements from different studies.
Each numbered part is a random draw from the data of one study; scales do not carry over between parts. Positions count from the first letter of the parent shown.

Block 1
Target: CCNE1, cyclin fold, Cln2 fusion (human)
Technique: yeast growth competition, sequencing
Sample: yeast
Setting: strong parent motif
Relative to: not given
Direction: higher = stronger binding
Starting sequence: CDC25A docking peptide (human); PPHRRRLLFACSP
| Change | normalised enrichment score |
| --- | --- |
| PHHRRRLLFACSP [P2H] | 1.84 |
| PPHRRRLLAACSP [F9A] | 0.98 |
| PPHRKRLLLACSP [R5K F9L] | 0.315 |
| PPHRRRKLFACSP [L7K] | 0.852 |
| PPHRRRLLFAWSP [C11W] | 1.55 |
| PPHRRRLLFADSP [C11D] | 1.87 |
| PPHRRLLLFACSP [R6L] | 1.65 |
| PPHRQRLLFACSP [R5Q] | 0.83 |
| IPHRRRLLFACSP [P1I] | 1.4 |
| PPHRRILLFACSP [R6I] | 1.2 |
| PPHRRRLLFACTP [S12T] | 1.05 |
| PPHRRRVLFACSP [L7V] | 0.445 |
| PPHRRRLLFACSE [P13E] | 1.37 |
| PPHRRRLLFACSN [P13N] | 1.64 |
| CPHRRRLLFACSP [P1C] | 0.364 |
| PPHRRRLLEACSP [F9E] | 0.426 |
| LPHRRRLLFACSP [P1L] | 1.07 |
| PPHRRRLIFACSP [L8I] | 2.22 |

Block 2
Target: Interferon regulatory factor 7, full length, phosphomimetic (IRF7, Homo sapiens, UniProt Q92985, residues 1-503, S471D/S472D/S475D/S476D/S477D/S483D/S484D/S487D)
Technique: protein-binding microarray
Molecule type: double-stranded DNA, one strand shown
Sample: in vitro
Concentration: 2200 nM top
Setting: 60-bp whole probe
With: salmon DNA 0.4 mg/ml
Relative to: random background probes
Direction: higher = stronger binding
All sequences stand within: GCCTAGCAC … GTCTTGATTCGCTTGACGCTGCTG
Residues (chain): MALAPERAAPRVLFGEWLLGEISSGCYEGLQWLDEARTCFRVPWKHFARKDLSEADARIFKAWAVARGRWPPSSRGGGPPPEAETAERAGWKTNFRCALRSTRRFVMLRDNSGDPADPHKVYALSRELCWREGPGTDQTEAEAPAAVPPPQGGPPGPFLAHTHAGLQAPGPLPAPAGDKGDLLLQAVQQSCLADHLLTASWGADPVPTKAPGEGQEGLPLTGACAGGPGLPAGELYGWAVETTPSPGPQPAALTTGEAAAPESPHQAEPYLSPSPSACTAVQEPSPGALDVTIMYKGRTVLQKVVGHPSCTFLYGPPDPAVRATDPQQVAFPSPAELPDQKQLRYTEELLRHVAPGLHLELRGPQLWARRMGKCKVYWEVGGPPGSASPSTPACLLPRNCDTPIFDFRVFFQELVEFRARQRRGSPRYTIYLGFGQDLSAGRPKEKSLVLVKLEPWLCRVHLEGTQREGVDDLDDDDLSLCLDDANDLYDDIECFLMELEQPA
| Sequence | fitted relative affinity [z-score] |
| --- | --- |
| GACGGTCTCCTACTGCTCACGTGCTAG | 0.839 |
| CCCATGCTGGATGAAGTACAGTGCTAG | -0.454 |
| TTAGAAATCGGGACTGGATTAGTGCTA | -0.674 |
| TTAGATATCAGGTATCGATTAGTGCTA | -0.0194 |
| TCACTTTCCAACTCTGTTACTGTGCTA | 4.89 |
| TCATTTCTGAATGCTCCCACTGTGCTA | 2.08 |
| GCTTTTTCCCCCCTCACGCAGTGCTAG | 1.46 |
| GACGGTATCCTATTCCTGACGTGCTAG | 1.31 |
| TTTGAGCTCTGTCTGGGATGGTGCTAG | -0.205 |
| GACGCTATCGACTATCGGGACGTGCTA | 0.278 |
| TTAGGTTGCCTACTGCTTTAGTGCTAG | 0.383 |
| GACGGACTGGGGACTGGGGCCGTGCTA | -0.756 |
| GACGGTTTGGGTTTCGGGACGTGCTAG | 2.33 |
| TTAGGTATCGACTATCGGTAAGTGCTA | 0.087 |
| AGCTTTCCCAACATCAGAGCGTGCTAG | 1.39 |
| GACGGTTTTGGACTGGGGACGTGCTAG | 0.593 |
| GTCGGACTGGACACTGGGGACGTGCTA | -0.705 |
| GACGAACTGGGTTTCGGGACGTGCTAG | 1.83 |

Block 3
Target: RNA binding protein fox-1 homolog 2, RRM domain, GST-SBP tag (RBFOX2, Homo sapiens, UniProt O43251-10, residues 100-194)
Technique: RNA Bind-n-Seq
Molecule type: RNA
Sample: in vitro
Concentration: 365 nM
Setting: natural RNA segment, single round, ends assumed
Relative to: no-protein control
Direction: higher = stronger binding
All sequences stand within: GGGAGUUCUACAGUCCGACGAUC … UGGAAUUCUCGGGUGCCAA
Residues (chain): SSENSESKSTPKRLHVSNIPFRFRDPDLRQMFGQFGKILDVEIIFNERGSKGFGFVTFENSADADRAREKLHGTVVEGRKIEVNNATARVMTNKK
| Sequence | RBNS enrichment (R) |
| --- | --- |
| CCAUUCAUCACAUCUGCCUCAUAGCCCCCAUCUUUGCUGUGCUGAUAGGAUUUAGUUGUGUUUAGGACAUUGCAGAUCUUCUAGAAGUUUCCCCUCAAUCAGGUUGAUAA | 0.6 |
| GUGUAAUUAUUUCUUCUCUUACUAGUUUCAAAUAAAUUCAUCUCUAAUUCUAUAGAGAAUUCUUGCCUCCCAUUCAGGACUGGCCUUCUAUACAGUGAGAUGGUCCAGUA | 0.789 |
| UCAAUUUGCAAGAUAAGUUAUGGGUCACAUGAACAGUCAUGGCAUUUAGCACGUUAUAGGAAAUUAUAAGAGAUUAUAACCAAAUGGAGCGUUAUUAACCCAAAGCAGAA | 0.636 |
| AUUUGAGGCUCUGAUUGCUGAGCCAGCCUCCUCCCAGGCGGUUUCCCCAGGACUCUCGUAGGAAAUAAAUAGCCCUUUCAAGAUUCCUCAGCUGCCUCACCCCCUGCACA | 0.469 |
| GAGGAAGCUGGUGUCCUAAGACACUGAAACCCAGUGCUCAUUGGAGCUGCCAGCCACAGGUUUCUAUUCUGAGUUCUCCAGUCUUGUGAAAGAGGAGAAUUUCCCAGUCA | 0.282 |
| CCUAAUUUAUUCUUAUUUGACAGAGGGUAUGGAAGACUUGCAAUUUGAAAACUGGGGACCAGUUCCAAAGUCAGUAAUUGUGUUAACCACGUGUAUAACAGCUCUGCUGG | 0.424 |
| UGGCUCACUGCAGCCUCGAACUCCUGGGCUCAAGCAAUCCUCCUGAGUGAUCCCAUUUCUUAAUCAGUGUAGCCCCAAGAAGGCUGGGGCUAUUUACCAGGGUAGAAAAA | 0.368 |
| GCCGCUGAGAUCCAGUGUCCAAGCUGCGGCCAGGAGUCCACCCACCUCCGCAUCCACCCCCGUCCGCCAUCCUGCCCACCACCAGGUCGGUUCCCGAGGCCUGGCCUUUC | 0.843 |
| GUUCACAUCCCAGACACCAGGGGUCAGGUACUAACUAAAGAGAUGGAAUGCAGUGUGCUUUUUGAGACACUAGGGGGAGCCUGGUAUUAACUAAACAGCUUGCCAUUCAA | 0.813 |
| UUUAAAAUGGUGCCCUACCAUUGACACAUGCAGAAAUUGGUGCGUUUUGUUUUUUUUUUUCCUAUGCUGCUCUGUUUUGUCUUAAAGGUCUUGAGGGUUGACCAUGUUGC | 4.35 |
| GUGAAGGAGCUUGCUGGAUAAAGGCACGAUGGGGCUUUUUAUGGAGUAAAGUUUCUUGAUUUCAACUAUAAUGAAUACUUUGCCUGUCUAGUUAGUACUGGCAGGACAUA | 0.493 |
| UUUUGCUCAGGAAGUCUUUGGGGAAAUUAAGGAUCUUUGAAGCUCUGAAAUAGGUGAUCAGGUUAGUGGUGUCUGUCAGCUGUCUAAGAGGUUGGAAAAUGAACUACUCA | 0.478 |

Block 4
Target: RING finger protein unkempt homolog, zinc fingers 1-6, GST-SBP tag (UNK, Homo sapiens, UniProt Q9C0B0, residues 30-357)
Chain of UniProt Q9C0B0 (30-357, looked up): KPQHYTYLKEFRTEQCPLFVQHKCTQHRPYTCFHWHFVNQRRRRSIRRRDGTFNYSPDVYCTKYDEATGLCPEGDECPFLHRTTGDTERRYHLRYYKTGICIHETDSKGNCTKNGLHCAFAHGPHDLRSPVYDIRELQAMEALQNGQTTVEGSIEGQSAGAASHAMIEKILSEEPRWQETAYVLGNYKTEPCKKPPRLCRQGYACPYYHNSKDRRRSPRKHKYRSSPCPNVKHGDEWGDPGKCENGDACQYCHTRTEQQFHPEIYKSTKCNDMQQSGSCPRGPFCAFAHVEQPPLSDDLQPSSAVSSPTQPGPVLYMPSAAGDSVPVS
Technique: RNA Bind-n-Seq
Molecule type: RNA
Sample: in vitro
Concentration: not given
Setting: RNA with constant flanks, ends assumed
Relative to: input RNA pool
Direction: higher = stronger binding
All sequences stand within: GGGAGUUCUACAGUCCGACGAUC … CAACAGAGGAUUGAGCAUCA
| Sequence | bound/input enrichment [ratio] |
| --- | --- |
| UACUGGAGGUCACUAGUUUUGUGAAGAGAUAUAGAACUUCUGGUUGAUGCUUCCUAGCGUUCCGGAUACGAGUUAUUGCACUCUACUUCCUAGCCUCUACUUUUAACUUGUAAGGCCUGC | 0.275 |
| UAUGAAGUGUACAGCUCCUCAGCAGGCCCUGCGGUCAGACACAAGUGCCUUAGAGCAAUUCUCCGGAUAAUUUAUUUUGCUGAUGCUGAACUUCUGAAGGAUGUUCUGAAAAAUCAUGCU | 1.65 |
| GGUAUUUUCCAGUGAAGACUAUCGCCAAGAAUGCAUAUCAUUCUGCUUAUUUUAUUCCCGUGGAUAAAAAUUCAACGUAUAUUUAAGUGUAUUUUUGACAUCUGUGCUUGUCCAACACAG | 0.212 |
| UUAUAGGAUUCCAAACCCAUGAGACAUGUUUUACAGGAAAUGAAAGCAUGAAUACUCAGGCCGCUGGAAGUGAGUUAAACAUGACAGGGACAGGUGGCAUUAAAACUGAGUCUAAAAGCU | 0.293 |
| CUAUGUAAAACGACAGCCUUACAUAGUUUCCUGUCAACACAAAUUUAGGAUAUAAUACAUUUCCGAAAUUUAUUAUUUUUCAAUUAUUUUUGGUUUUUUUACUACUUACCUUGUAAAAAU | 3.97 |
| UGCCUCUAAGGCUGGGCUCUGCCUCAGAGGAGUUUAUUUUCUUUUUUUCUAUAAAGUUUAAACCGUCUUUUGAGUGAAUUUUCUGGUCAUUGCCUAUACAAAUAAAUGUAAGAAAUCUGG | 0.332 |

Block 5
Target: Histone acetyltransferase KAT6A, winged helix 1, GST fusion (KAT6A, Homo sapiens, UniProt Q92794, residues 1-85)
Technique: protein binding microarray
Molecule type: double-stranded DNA, one strand shown
Sample: in vitro
Concentration: not given
Setting: 8-mer, flanks averaged, mean of 2 arrays, mostly near background
Relative to: not given
Direction: higher = stronger binding
Construct (chain): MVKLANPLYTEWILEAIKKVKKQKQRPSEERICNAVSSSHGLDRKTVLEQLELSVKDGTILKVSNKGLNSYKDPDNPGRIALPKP
| Sequence | E-score |
| --- | --- |
| CTCGCATA | 0.0381 |
| CAGATAGC | -0.0982 |
| AAACCGCT | 0.239 |
| CCTATGCA | -0.162 |
| CAAAGGAG | -0.0962 |
| AGCACGTA | -0.154 |
| GACGACGC | 0.172 |
| CCTAACAA | -0.209 |
| AGATATAC | -0.0258 |
| AGGCCCGG | 0.144 |
| ACGTAGTG | -0.00177 |
| TAAAGTGA | -0.1 |
| AGACATAC | -0.037 |
| GAGAAACA | -0.148 |
| GCGGAGAC | 0.338 |
| GGATCGAA | 0.0618 |
| TGTAACAA | -0.116 |
| CGGGGTTC | 0.269 |
| CTGTTCCC | -0.0557 |
| AGTACAGC | -0.178 |
| TAGAAAAA | -0.121 |
| CACACAAC | -0.0959 |
| CAGGAGAG | -0.23 |

Block 6
Target: ABI1, truncated, D143A, DHFR fusion (Arabidopsis thaliana)
Technique: DHFR PCA, deep sequencing
Sample: yeast
Setting: methotrexate growth selection, single substitutions
With: (+)-ABA 0.032 µM
Relative to: wild-type fitted maximum
Direction: higher = stronger binding
Starting sequence: PYL1, truncated, DHFR fusion (Arabidopsis thaliana); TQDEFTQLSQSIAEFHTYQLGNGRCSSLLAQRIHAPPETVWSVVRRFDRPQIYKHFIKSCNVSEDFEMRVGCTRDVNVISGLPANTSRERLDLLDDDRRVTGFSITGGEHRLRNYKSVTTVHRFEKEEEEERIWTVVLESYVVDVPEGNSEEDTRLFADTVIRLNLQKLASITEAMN
| Change | relative binding score |
| --- | --- |
| E129Q | 24.5% |
| D48Q | -7.41% |
| G71T | -2.03% |
| I172H | -3.19% |
| I79G | 0.405% |
| T73Q | 10.7% |
| F47Q | 2.5% |
| H55P | 75.2% |
| V76T | -0.683% |
| Q2R | 25.1% |
| K54Q | 9.65% |
| I79C | 35.1% |

A few entries again (block 3):
| Sequence | RBNS enrichment (R) |
| --- | --- |
| GUGUAAUUAUUUCUUCUCUUACUAGUUUCAAAUAAAUUCAUCUCUAAUUCUAUAGAGAAUUCUUGCCUCCCAUUCAGGACUGGCCUUCUAUACAGUGAGAUGGUCCAGUA | 0.789 |
| UCAAUUUGCAAGAUAAGUUAUGGGUCACAUGAACAGUCAUGGCAUUUAGCACGUUAUAGGAAAUUAUAAGAGAUUAUAACCAAAUGGAGCGUUAUUAACCCAAAGCAGAA | 0.636 |
| AUUUGAGGCUCUGAUUGCUGAGCCAGCCUCCUCCCAGGCGGUUUCCCCAGGACUCUCGUAGGAAAUAAAUAGCCCUUUCAAGAUUCCUCAGCUGCCUCACCCCCUGCACA | 0.469 |
| GAGGAAGCUGGUGUCCUAAGACACUGAAACCCAGUGCUCAUUGGAGCUGCCAGCCACAGGUUUCUAUUCUGAGUUCUCCAGUCUUGUGAAAGAGGAGAAUUUCCCAGUCA | 0.282 |
